Measurements gathered from unrelated publications.
A part holds a random share of what one study measured. Positions count from the first letter of the parent shown.

Series 1 — technique: protein-binding microarray; form: double-stranded DNA, one strand shown; matrix: in vitro; concentration: 0.8 µM; setting: whole 60-bp probe, no competitor; direction: higher = stronger binding; all sequences stand within: … GTCTTGATTCGCTTGACGCTGCTG
Target: Centromere-binding protein 1, full length, N-terminal tag (CBF1, Saccharomyces cerevisiae, UniProt P17106, residues 1-351)
UniProt P17106, sequence (whole entry, looked up): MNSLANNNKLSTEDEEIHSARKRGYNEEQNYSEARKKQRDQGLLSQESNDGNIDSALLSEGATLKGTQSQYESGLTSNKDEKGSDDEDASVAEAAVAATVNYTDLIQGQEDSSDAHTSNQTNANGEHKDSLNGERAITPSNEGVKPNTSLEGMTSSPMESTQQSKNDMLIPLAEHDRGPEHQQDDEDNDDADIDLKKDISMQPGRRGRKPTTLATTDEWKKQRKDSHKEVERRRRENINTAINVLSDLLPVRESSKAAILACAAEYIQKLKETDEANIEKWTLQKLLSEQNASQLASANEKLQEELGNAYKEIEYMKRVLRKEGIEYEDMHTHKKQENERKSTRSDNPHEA
| Strand | fluorescence intensity [a.u.] |
| --- | --- |
| CTACGTTGCTAACATCATGTTAGTCTGACAAGTTTC | 555 |
| CTAGTATATATAAATGTCGTGATGCTTCTATGCTTC | 634 |
| TGTACGAAGCTATACATGATGATTATAGTAGTTAGG | 505 |
| GAAAGTCGGAACTATCACGTAGTTTGAAAATGTTAG | 604 |
| CTAGACAGATAGAGGGGCACGTGTTCAGCCAGTTTC | 12900 |
| CTATCGCGTTCGTCACACATGATTATTTATACATTC | 861 |
| CTAATACTAGTTCTCCTCGTGGTATAGGAATCCTTC | 614 |
| GAATTTCACAATCTTCACGTTCGTTGAAAGCTATAG | 528 |
| GAATCATCATCAATCCTCGTGTCTCTGCTTACATAG | 568 |
| GAAGAAAGGAGACGTCACGTCACTTAGGCAAGATAG | 765 |
| CTAATTTGTCGTTGTGACCACAAAAAAGAATTCTTC | 818 |
| CTAAAGAAACGAATTCACCTGATTGCAGCTGCATTC | 605 |
| TGTACGAAGCTATAAAACGTGACTATAGTAGTTAGG | 2520 |
| CTAGGGAGGGAGGCGCATGTGCTCTATTACTTTTTC | 848 |
| GAAACCATCATTCATCATCACTTATCATTATCATAG | 520 |
| CTAAAAGGGGCTCCGGTGGTGATGAGGAGAGAATTC | 463 |
| CTAATGTCTATTGGTGACGCCTGGTCTGGATTCTTC | 520 |
| GAATGCATGGATTGTGCTGATGTAAGCTGCACGTAG | 516 |
| GAAATGTAAAAATGTCTCCTGTGACTTTCATTATAG | 567 |

Series 2 — technique: RNA Bind-n-Seq; form: RNA; matrix: in vitro; concentration: 365 nM; baseline: no-protein control; direction: higher = stronger binding
Target: RNA binding protein fox-1 homolog 2, RRM domain, GST-SBP tag (RBFOX2, Homo sapiens, UniProt O43251-10, residues 100-194)
Setting: natural RNA segment, single round, ends assumed
All sequences stand within: GGGAGUUCUACAGUCCGACGAUC … UGGAAUUCUCGGGUGCCAA
Residues (chain): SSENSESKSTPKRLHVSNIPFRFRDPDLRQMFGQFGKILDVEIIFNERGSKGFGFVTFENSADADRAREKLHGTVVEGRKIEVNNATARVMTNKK
| Strand | RBNS enrichment (R) |
| --- | --- |
| UCAUUUAGUAUCUUUUUAACAGAAUUACUUGGAAUAAUGAGAUACAAUAAUCAUAUCUCUUUUGACAUUUUGGAAAUUUUUUUAAUUUUACAAGUACAUUUAACAGAUCA | 0.516 |
| CCCGUUCUAAUCGUCACCGCUCCUCCAGGUCUCCUAAUCUGGAUUCCACUACACCUCAUACUCUGGAGACAUGAGUAUUCCUCAUUUUUCCCAGAAGAAUCAUGGAAGGA | 0.314 |
| UGAAAUUUAAAAAUAAAUGAAGGAAUAUAGAGAUGGCACAGGGUUCCAGCUUGUUGUGUUUAUAAAUCAUAAAGUCAUGAUAUACCUUCUACAGACAUAGCAUUUUUUCA | 1.63 |
| CUCUGAGAACAAAAUACUACCUCACUCUUUACGUACGUGGUGACUGUACGCACAGUCUGUGCUGCAUGUCUGUCACCCAUACGCAGUCUCAAUCAUGGCCUUCACUGAGU | 3.88 |
| UCUGUCCCCUUUCAUGGCUGUGCAGCCGUCCCGCUGGAGUGGCCAUGUCCCUUGUGCAUUGAGUGCAUCCCCGCUGGUGACUAAGCUCGCAGCAAGCGGCUACCCCCCGA | 0.517 |
| UCACUUCGUUUUUGAGAAGAGUGAUGCCUUGGGCAUGCUUUUUUUUUUUUCUUUUUUAGAAAACAGGGAGUUGAAGUCCAACCUAUUUAAAAACCCCACCAUUUGGAGAA | 0.425 |
| ACGGACCUCACUGCUACUGCUGCCUCCAUUAACGCUGUGCUCACACAUUGUCUGGGAUUUUAAGGAUGUCAAACUGCUGUAGAUGACUCAAUAAAUGUCUUAUCGUUUUU | 0.535 |
| UGCCUGGGCAUGAACAUUGUUACCGUAAAUUGCACAUGGUCAUGGACUGAAUUAUGUGACUUUAAAGGAUGUAACUGCCCAACAUUUGCAGAUUCUGGGUGGUCUAUGUG | 1.56 |

Series 3 — target: CCND2, cyclin fold, Cln2 fusion (human); technique: yeast growth competition, sequencing; matrix: yeast; setting: weak parent motif; baseline: not given; direction: higher = stronger binding
Starting sequence: E2F1 docking peptide (human); PPVKRRLDLETDH; partner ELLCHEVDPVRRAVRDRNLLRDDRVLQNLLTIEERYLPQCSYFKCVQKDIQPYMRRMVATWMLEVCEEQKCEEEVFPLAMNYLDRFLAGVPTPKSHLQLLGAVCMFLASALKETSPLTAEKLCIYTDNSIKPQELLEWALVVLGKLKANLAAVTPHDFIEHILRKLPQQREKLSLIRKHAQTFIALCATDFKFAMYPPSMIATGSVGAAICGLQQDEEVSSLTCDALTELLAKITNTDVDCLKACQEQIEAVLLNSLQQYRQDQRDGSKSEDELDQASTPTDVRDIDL
| Variant | normalised enrichment score |
| --- | --- |
| D12H | -0.0734 |
| P1T | 0.378 |
| K4T | -0.283 |
| D12T | -0.217 |
| R6Q | 0.524 |
| T11C | 0.155 |
| P1M | 0.48 |
| P2S | 0.189 |
| R6I | 0.198 |
| L7C | 0.201 |
| P2Q | 0.237 |
| K4F | 0.171 |
| E10W | 0.479 |
| V3M | 0.523 |
| T11S | 0.282 |
| R6K | 0.0182 |
| P2V | 0.00941 |
| K4A | 0.411 |
| P2H | 0.404 |
| R6M | 0.198 |
| P1A | 0.303 |
| P1C | 0.0887 |
| R6Y | 0.0983 |
| P2G | 0.283 |
| D12A | 0.221 |

Series 4 — technique: universal PBM; form: double-stranded DNA, one strand shown; matrix: in vitro; concentration: 600 nM; direction: higher = stronger binding
Target: Sal-like protein 4, full length isoform A (SALL4, Homo sapiens, UniProt Q9UJQ4, residues 1-1053)
UniProt Q9UJQ4, sequence (whole entry, looked up): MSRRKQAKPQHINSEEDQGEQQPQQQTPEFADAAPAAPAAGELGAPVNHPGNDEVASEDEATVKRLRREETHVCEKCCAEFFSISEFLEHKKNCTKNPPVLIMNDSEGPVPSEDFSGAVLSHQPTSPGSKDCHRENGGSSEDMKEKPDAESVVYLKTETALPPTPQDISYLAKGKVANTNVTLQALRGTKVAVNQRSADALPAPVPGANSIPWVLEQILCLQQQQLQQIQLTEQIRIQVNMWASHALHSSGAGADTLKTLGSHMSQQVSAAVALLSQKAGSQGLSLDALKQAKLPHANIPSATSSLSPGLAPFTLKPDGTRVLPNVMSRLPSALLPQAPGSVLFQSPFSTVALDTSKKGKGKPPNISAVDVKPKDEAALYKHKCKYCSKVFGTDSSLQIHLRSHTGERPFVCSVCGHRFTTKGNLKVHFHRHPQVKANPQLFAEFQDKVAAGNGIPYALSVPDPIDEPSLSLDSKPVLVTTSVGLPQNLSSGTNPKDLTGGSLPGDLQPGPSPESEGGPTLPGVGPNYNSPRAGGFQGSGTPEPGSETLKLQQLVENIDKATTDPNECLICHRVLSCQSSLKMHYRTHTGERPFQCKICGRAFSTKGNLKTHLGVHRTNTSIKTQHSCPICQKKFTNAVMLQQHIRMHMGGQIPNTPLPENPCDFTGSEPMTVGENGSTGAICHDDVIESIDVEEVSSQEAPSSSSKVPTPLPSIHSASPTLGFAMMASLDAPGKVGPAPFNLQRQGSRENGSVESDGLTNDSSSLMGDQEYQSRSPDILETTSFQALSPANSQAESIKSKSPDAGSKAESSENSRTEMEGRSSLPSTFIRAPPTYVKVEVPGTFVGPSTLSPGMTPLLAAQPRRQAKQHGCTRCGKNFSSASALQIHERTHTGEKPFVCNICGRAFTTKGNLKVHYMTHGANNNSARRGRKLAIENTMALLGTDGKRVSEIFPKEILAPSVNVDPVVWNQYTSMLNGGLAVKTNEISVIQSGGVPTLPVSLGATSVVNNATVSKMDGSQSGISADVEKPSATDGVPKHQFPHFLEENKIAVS
Setting: 8-mer, flanks averaged, mean of replicates
| Strand | E-score |
| --- | --- |
| CCTTCATC | -0.0805 |
| AACCAAAT | 0.108 |
| AGGTGTCG | -0.288 |
| CCAAAGTA | 0.103 |
| CGCTAAAG | -0.0211 |
| TGACACAA | 0.163 |
| CAACGATA | 0.252 |
| GAATATCC | 0.16 |
| CCTGCCGA | -0.21 |
| ACTCCGAC | -0.241 |
| ATCTACAA | 0.213 |
| ATGCTGAA | 0.00626 |
| AACGTATT | 0.224 |
| CAGATAAG | 0.0841 |
| AAAGACGC | -0.126 |
| CAGTTGGG | -0.135 |
| GCAGTTCC | -0.148 |
| CAGGCTAC | -0.134 |

Repeated from above (series 4):
| Strand | E-score |
| --- | --- |
| CCAAAGTA | 0.103 |
| CCTGCCGA | -0.21 |
| CAGTTGGG | -0.135 |
| ATGCTGAA | 0.00626 |
| GAATATCC | 0.16 |
| AACGTATT | 0.224 |
| CGCTAAAG | -0.0211 |
| CAACGATA | 0.252 |
| CCTTCATC | -0.0805 |
